Measured values of several laboratories.
Protocols differ between the studies behind these lines. Several values in a cell are separate wells, animals, samples, runs or records. Numbers after ± are the reported error.

Structure (SMILES) = CC(C)C[C@@H]1NC(=O)[C@H](Cc2ccccc2)NC(=O)[C@H](CO)NC(=O)[C@H](Cc2ccccc2)NC(=O)CSC[C@@H](C(=O)N(C)[C@@H](Cc2ccccc2)C(N)=O)NC(=O)[C@H](Cc2c[nH]c3ccccc23)NC(=O)[C@H](Cc2c[nH]cn2)NC(=O)[C@H](Cc2ccc(O)cc2)NC1=O; target = Stimulator of interferon genes protein (STING1, Homo sapiens, UniProt Q86WV6, H232R); test = thermal stability, DSF; conditions = 200 µM; measurement = ΔTm; value = 7.89 °C
Structure (SMILES) = CCn1cc(-c2cccc(C(F)(F)F)c2)c2sc(C(=N)NC3CCS(=O)(=O)CC3)cc2c1=O; target = Bromodomain-containing protein 3, BD1 (BRD3, Homo sapiens, UniProt Q15059); measurement = ΔTm; value = 4.5 °C
Structure (SMILES) = CN(C)c1ccc(-n2cc(COC(=O)[C@]3(C)C=C(C(=O)OC(C)(C)C)C(=O)CC3)nn2)cc1; target = Mitogen-activated protein kinase 8 (MAPK8, Homo sapiens, UniProt P45983); test = D-peptide binding, inhibitor, FP peptide displacement; conditions = 200 µM; scale = lower is stronger displacement; measurement = fraction bound; value = 0.149
Structure (SMILES) = Cn1c(=O)n(C2CCC(=O)NC2=O)c2ccc(C3CCN(CC(=O)Nc4cccc(CS(=O)(=O)N5CC[C@H](Nc6cccc(-c7sc(C(=O)O)c(OCC(=O)O)c7Cl)c6)CC5(C)C)c4)CC3)cc21 (stereo partly shown); target = Tyrosine-protein phosphatase non-receptor type 1 (Mus musculus, UniProt P35821); test = degrader, Western blot; test system = B16-F10; conditions = 1 µM; measurement = remaining protein; value = 1.6% and 1.8%
Structure (SMILES) = Cc1cc(NC(=O)[C@H](O)c2cc(F)cc(F)c2)ccc1-c1cnc(N)c(C(=O)NC(C)C)c1; target = Serine/threonine-protein kinase haspin (HASPIN, Homo sapiens, UniProt Q8TF76); test = binding, competition with immobilised ligand; conditions = 1 µM; measurement = remaining binding; value = 97%
Structure (SMILES) = CCOC(=O)C(CC)(CCCSCCCCCCNc1ccc([N+](=O)[O-])c2nonc12)NC(=O)c1ccc(C2CC2)c(Cc2ccc(F)cc2)n1 (stereo not shown); target = Cannabinoid receptor 2 (Cnr2, Mus musculus, UniProt P47936); test = cAMP, agonist; measurement = Emax; value = 122%
Structure (SMILES) = COc1ccc(C(=O)c2c(C(=O)NCCCN(C)C)oc3ccc(Cl)cc3c2=O)cc1OC; target = Growth hormone secretagogue receptor type 1 (GHSR, Homo sapiens, UniProt Q92847); test = SRF-RE reporter gene; test system = HEK293T; measurement = Emax; value = 106 ± 1.6%
Structure (SMILES) = Cc1cnc2nc1Nc1cccc(c1)COC/C=C/COCc1cc(ccc1OCCN1CCOCC1)N2; target = Mitogen-activated protein kinase kinase kinase 13 (MAP3K13, Homo sapiens, UniProt O43283); conditions = concentration not given, kinase construct LZK; scale = relative to: control; measurement = binding; value = 94%
Structure (SMILES) = O=C(NC[C@@H](Cc1ccc(F)cc1)N1CCC(O)(C(F)(F)F)CC1)C1(c2ccc(Cl)cc2)CCCC1; target = Transient receptor potential cation channel subfamily A member 1 (TRPA1, Homo sapiens, UniProt O75762, V875G); conditions = concentration not given; measurement = activity; value = inactive
Structure (SMILES) = C[Si](C)(C)C[C@H](CN)CC(=O)O; target = B2 bradykinin receptor (BDKRB2, Homo sapiens, UniProt P30411); test = ligand displacement, radioligand; conditions = 250 µM; measurement = inhibition; value = -9%
Structure (SMILES) = O=C1c2sc(-c3ccc(N4CCC(F)C4)nc3F)nc2CCN1c1cccnc1 (stereo not shown); target = TAR DNA-binding protein 43, aggregated (TARDBP, Homo sapiens, UniProt Q13148); test = radioligand binding; test system = human, FTLD-TDP type B sarkosyl-insoluble extract; conditions = 52.06 nM; measurement = specific binding; value = 2.2 nM and 2.11 nM
Structure (SMILES) = CCCCCC=CC=C1C(=O)C=CC1CC=CCCCC(=O)O (stereo not shown); target = Small glutamine-rich tetratricopeptide repeat-containing protein alpha (Homo sapiens, UniProt O43765); test = competitive isoTOP-ABPP, item: SGTA cysteine peptide; test system = Ramos soluble proteome; conditions = 100 µM, added: iodoacetamide probe; scale = relative to: DMSO over compound-treated, higher = stronger cysteine blockade; measurement = isoTOP-ABPP competition ratio; value = 2.3
Structure (SMILES) = Cc1ccc(C[C@H](NC(=O)CN2CCCc3cc4cc(C(=O)NCCNC(=O)CCCC[C@@H]5SC[C@@H]6NC(=O)N[C@@H]65)c(=O)oc4cc32)C(=O)NC/C=C/S(=O)(=O)c2ccccc2)cc1; target = Rhodesain (rhodesain, Trypanosoma brucei rhodesiense, UniProt Q95PM0); test = inhibitor; conditions = pH 5.5, 37 °C, added: Z-Phe-Arg-AMC; measurement = kinact/Ki; value = 37000 M⁻¹ s⁻¹

Excerpt of the above:
Structure (SMILES) = O=C(NC[C@@H](Cc1ccc(F)cc1)N1CCC(O)(C(F)(F)F)CC1)C1(c2ccc(Cl)cc2)CCCC1; target = Transient receptor potential cation channel subfamily A member 1 (TRPA1, Homo sapiens, UniProt O75762, V875G); conditions = concentration not given; measurement = activity; value = inactive
Structure (SMILES) = CC(C)C[C@@H]1NC(=O)[C@H](Cc2ccccc2)NC(=O)[C@H](CO)NC(=O)[C@H](Cc2ccccc2)NC(=O)CSC[C@@H](C(=O)N(C)[C@@H](Cc2ccccc2)C(N)=O)NC(=O)[C@H](Cc2c[nH]c3ccccc23)NC(=O)[C@H](Cc2c[nH]cn2)NC(=O)[C@H](Cc2ccc(O)cc2)NC1=O; target = Stimulator of interferon genes protein (STING1, Homo sapiens, UniProt Q86WV6, H232R); test = thermal stability, DSF; conditions = 200 µM; measurement = ΔTm; value = 7.89 °C
